Published values from different studies.
Each line is one published result; not all experiments were run side by side. ± marks the error that the study gave.
CYP2C8: Cytochrome P450 2C8 (CYP2C8, Homo sapiens, UniProt P10632)
UniProt P10632, sequence (whole entry, looked up): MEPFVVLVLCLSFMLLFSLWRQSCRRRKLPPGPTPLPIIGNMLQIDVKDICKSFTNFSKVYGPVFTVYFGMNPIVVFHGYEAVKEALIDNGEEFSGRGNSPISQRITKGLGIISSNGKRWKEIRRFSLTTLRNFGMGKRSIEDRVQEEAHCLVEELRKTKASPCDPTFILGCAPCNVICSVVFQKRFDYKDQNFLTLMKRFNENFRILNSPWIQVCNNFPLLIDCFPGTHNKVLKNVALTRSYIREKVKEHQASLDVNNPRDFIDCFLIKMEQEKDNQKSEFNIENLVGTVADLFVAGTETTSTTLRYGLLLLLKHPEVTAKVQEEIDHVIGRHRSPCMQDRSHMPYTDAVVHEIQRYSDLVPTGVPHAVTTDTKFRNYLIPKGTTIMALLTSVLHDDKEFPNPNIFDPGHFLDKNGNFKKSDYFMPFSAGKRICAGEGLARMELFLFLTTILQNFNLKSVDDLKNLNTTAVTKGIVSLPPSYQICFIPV
ABCB1: ATP-dependent translocase ABCB1 (ABCB1, Homo sapiens, UniProt P08183)
UniProt P08183, sequence (whole entry, looked up): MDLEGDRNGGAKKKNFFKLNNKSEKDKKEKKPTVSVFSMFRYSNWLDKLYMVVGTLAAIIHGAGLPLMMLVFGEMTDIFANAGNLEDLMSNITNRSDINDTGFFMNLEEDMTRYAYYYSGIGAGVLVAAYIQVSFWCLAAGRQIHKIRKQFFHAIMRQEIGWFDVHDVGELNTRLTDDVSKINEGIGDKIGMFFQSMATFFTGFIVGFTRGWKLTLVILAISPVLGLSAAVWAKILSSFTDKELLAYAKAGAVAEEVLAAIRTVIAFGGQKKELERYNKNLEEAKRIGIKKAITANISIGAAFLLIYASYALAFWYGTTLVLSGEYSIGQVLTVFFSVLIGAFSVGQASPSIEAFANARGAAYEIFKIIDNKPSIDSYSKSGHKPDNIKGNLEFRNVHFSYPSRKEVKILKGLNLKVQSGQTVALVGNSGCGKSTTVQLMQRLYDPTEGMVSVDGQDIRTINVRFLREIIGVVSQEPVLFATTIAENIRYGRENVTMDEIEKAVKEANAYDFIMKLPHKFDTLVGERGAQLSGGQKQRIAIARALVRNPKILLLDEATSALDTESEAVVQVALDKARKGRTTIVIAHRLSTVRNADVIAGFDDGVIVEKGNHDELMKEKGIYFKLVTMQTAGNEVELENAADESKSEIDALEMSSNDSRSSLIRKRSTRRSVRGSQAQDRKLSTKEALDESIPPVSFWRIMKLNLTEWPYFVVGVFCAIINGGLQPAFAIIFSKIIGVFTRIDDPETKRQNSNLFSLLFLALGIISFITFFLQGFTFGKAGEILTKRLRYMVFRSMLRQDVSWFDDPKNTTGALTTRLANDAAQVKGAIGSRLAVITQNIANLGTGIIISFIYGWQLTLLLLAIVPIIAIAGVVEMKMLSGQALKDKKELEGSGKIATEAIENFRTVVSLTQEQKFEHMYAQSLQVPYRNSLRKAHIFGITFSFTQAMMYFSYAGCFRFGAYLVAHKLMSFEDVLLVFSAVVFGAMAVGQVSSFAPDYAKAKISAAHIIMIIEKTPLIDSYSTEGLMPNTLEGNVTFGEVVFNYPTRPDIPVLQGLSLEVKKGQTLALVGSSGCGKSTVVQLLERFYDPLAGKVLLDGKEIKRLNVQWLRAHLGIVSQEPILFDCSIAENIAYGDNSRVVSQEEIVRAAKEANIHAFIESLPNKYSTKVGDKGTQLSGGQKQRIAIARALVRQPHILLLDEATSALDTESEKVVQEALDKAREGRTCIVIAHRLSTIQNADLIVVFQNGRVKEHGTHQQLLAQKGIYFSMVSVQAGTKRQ
UniProt P04798, sequence (whole entry, looked up): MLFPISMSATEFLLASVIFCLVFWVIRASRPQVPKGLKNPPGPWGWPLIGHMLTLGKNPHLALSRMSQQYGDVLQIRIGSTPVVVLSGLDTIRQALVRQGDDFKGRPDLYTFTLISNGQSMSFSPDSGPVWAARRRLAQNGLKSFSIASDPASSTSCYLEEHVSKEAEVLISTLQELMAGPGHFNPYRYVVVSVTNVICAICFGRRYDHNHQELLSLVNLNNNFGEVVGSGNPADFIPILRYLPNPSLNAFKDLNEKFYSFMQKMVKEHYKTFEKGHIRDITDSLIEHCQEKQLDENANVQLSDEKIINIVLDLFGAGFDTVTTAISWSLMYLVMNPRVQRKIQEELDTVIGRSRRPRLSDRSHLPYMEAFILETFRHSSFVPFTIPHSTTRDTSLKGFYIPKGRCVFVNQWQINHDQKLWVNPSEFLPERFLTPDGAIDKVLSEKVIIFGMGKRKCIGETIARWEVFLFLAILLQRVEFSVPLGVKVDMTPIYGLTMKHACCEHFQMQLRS
UniProt P04233, sequence (whole entry, unmodified, looked up): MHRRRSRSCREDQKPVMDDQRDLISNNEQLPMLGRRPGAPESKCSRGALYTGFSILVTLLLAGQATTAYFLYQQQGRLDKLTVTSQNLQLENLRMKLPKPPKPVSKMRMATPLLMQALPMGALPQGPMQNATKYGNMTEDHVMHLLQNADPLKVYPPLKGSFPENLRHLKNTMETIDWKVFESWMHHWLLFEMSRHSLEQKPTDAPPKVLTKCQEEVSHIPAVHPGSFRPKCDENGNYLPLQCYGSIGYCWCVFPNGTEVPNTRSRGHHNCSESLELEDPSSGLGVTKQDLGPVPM
UniProt P50226, sequence (whole entry, looked up): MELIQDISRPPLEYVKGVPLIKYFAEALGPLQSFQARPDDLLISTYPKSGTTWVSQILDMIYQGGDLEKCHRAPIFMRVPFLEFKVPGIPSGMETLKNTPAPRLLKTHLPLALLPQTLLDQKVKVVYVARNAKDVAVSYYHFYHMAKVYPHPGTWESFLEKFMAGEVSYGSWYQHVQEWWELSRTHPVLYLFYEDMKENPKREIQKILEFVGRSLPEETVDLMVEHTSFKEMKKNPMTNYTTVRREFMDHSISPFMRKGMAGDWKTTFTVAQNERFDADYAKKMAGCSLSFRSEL
UniProt Q12809, sequence (whole entry, looked up): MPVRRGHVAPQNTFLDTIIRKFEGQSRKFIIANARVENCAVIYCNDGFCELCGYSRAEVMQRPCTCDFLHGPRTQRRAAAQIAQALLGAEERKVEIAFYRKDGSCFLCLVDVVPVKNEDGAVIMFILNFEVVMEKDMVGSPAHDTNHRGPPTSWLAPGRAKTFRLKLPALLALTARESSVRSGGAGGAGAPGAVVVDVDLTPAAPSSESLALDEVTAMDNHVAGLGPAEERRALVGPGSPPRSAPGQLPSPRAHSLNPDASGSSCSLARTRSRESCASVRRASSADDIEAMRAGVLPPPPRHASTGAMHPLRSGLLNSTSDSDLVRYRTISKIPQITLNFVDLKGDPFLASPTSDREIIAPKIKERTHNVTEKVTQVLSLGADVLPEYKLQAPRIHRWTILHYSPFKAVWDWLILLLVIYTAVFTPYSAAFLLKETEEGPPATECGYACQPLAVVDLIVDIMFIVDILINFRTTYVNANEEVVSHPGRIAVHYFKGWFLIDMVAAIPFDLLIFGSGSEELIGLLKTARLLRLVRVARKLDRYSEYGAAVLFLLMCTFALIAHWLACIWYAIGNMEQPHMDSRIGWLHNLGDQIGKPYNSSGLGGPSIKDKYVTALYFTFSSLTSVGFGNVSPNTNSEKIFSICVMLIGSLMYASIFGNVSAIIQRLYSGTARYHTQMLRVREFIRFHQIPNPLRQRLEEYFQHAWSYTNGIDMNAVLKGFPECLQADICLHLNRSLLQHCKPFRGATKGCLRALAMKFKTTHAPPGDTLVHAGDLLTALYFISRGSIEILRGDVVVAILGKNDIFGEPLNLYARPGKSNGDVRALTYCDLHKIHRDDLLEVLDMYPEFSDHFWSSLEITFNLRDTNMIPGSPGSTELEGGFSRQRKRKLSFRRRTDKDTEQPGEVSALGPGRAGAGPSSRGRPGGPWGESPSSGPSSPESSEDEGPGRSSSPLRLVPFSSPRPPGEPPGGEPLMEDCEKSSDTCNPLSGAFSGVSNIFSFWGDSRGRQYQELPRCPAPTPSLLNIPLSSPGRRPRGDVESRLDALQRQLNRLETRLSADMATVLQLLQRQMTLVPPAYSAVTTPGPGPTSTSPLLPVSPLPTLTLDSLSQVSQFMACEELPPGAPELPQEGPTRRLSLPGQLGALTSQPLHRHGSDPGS
UniProt Q9UNU6, sequence (whole entry, unmodified, looked up): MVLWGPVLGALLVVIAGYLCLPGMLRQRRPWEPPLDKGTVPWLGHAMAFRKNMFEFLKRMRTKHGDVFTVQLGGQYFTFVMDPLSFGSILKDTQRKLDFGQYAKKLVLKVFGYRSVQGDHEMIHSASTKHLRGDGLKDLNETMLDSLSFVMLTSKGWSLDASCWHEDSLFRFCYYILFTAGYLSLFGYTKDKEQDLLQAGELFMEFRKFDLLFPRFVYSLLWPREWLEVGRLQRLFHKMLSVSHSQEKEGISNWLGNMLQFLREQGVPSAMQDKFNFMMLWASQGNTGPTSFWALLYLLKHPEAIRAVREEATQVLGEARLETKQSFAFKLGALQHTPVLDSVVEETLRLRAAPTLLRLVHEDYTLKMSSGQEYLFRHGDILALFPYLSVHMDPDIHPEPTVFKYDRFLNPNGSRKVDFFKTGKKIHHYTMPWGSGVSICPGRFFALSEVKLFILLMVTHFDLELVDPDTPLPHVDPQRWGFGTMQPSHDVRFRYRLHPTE
UniProt P05177, sequence (whole entry, looked up): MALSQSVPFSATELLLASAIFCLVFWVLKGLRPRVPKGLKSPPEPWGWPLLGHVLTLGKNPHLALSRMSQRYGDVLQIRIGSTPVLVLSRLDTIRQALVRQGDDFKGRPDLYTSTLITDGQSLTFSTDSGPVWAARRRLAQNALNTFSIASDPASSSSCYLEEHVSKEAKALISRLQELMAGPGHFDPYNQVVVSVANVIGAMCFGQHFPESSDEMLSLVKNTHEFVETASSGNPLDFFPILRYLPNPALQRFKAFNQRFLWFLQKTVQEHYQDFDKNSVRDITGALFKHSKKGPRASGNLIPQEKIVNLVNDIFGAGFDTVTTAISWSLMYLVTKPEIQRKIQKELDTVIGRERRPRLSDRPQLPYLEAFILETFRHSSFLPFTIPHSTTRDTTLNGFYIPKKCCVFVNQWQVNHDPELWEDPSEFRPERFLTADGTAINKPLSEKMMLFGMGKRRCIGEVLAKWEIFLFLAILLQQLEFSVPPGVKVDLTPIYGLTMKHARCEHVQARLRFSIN

CC[C@H](C)[C@H](NC(=O)[C@H](CCCCN)NC(=O)[C@H](CC(C)C)NC(=O)[C@H](Cc1ccccc1)NC(=O)[C@@H](NC(=O)[C@H](CC(N)=O)NC(=O)[C@H](CCCNC(=N)N)NC(=O)[C@H](CO)NC(=O)[C@@H](N)CC(=O)O)[C@@H](C)CC)C(=O)N[C@@H](CCCCN)C(=O)N[C@@H](Cc1ccccc1)C(=O)N[C@@H](CCCCN)C(=O)N[C@@H](CCCCN)C(=O)N[C@@H](CCCCN)C(=O)O
half-life (trypsin; stability; 0.33 mM, pH 7.4): 3 h

CCOc1cc(CC(=O)N[C@@H](CC(C)C)c2ccccc2N2CCCCC2)ccc1C(=O)O
AUC(0-last) (CYP2C8; human, plasma; 0.5 mg, day 1, arithmetic mean): 11.1 ng·h/mL

C[C@@H](c1nc(-c2ccc(C#N)cc2)cs1)[C@](O)(Cn1cncn1)c1cc(F)ccc1F
IC50 (lenvatinib metabolism; inhibitor; rat liver microsomes; 30 min, pH 7.4, together with: lenvatinib substrate): 0.355 µM

Cc1oc2ccccc2c1Cc1cc(I)c(OCC(=O)O)c(I)c1
deactivation time constant reduction (KCNH2 (Homo sapiens, UniProt Q12809); ion current, whole-cell patch clamp; HEK293 expressing hERG1; 10 µM, K+ 10 mM; baseline: untreated): < 3 fold

CC[C@@H]([C@H](C)O)n1ncn(-c2ccc(N3CCN(c4ccc(OC[C@@H]5CO[C@@](Cn6cncn6)(c6ccc(F)cc6F)C5)cc4)CC3)cc2)c1=O
IC50 (lenvatinib metabolism; inhibitor; human liver microsomes; 30 min, pH 7.4, together with: lenvatinib substrate): 1.83 µM

CC(C)CCC[C@@H](C)[C@H]1CC[C@H]2[C@@H]3[C@H](O)CC4=CC(=O)CC[C@]4(C)[C@H]3CC[C@]12C
maximal absorbance change (7-alpha-hydroxycholest-4-en-3-one 12-alpha-hydroxylase (Homo sapiens, UniProt Q9UNU6, W281F); binding, Soret peak shift): 0.00462

Cc1cc(Nc2ncnc3ccc(NC4=NC(C)(C)CO4)cc23)ccc1Oc1ccn2ncnc2c1
geometric mean AUC(0-last) (CYP2C8; substrate; human, plasma; oral, 300 mg single dose, day 1): 2240 ng·h/mL

C[C@H]1CNC(=O)c2cnn3ccc(nc23)N[C@H](C)c2cc(F)ccc2O1
body weight loss (CD74-ROS1 (CD74/ROS1, Homo sapiens, UniProt P04233+P08922, G2032R); Balb/c nude mice, intracranial CD74-ROS1 xenograft; oral, 15 mg/kg twice daily, mean): 8%

C[C@@H](c1ncncc1F)[C@](O)(Cn1cncn1)c1ccc(F)cc1F
IC50 (lenvatinib metabolism; inhibitor; human liver microsomes; 30 min, pH 7.4, together with: lenvatinib substrate): 1.93 µM

COc1cc2c(CCNC(C)=O)c[nH]c2cc1O
specific activity (Sulfotransferase 1A2 (Homo sapiens, UniProt P50226); substrate; purified recombinant enzyme; 10 µM, 10 min, pH 7.0, 37 °C): 1.33 ± 0.04 nmol/min/mg

Cc1cc(Nc2ncnc3ccc(NC4=NC(C)(CO)CO4)cc23)ccc1Oc1ccn2ncnc2c1 (stereo not drawn)
Tmax (CYP2C8; human, plasma; oral, 300 mg tucatinib single dose, day 1, median): 2 h

CC[C@H](C)[C@H](NC(=O)[C@H](Cc1ccc(O)cc1)NC(=O)[C@@H](NC(=O)[C@@H](N)CCCN=C(N)N)C(C)C)C(=O)N[C@@H](Cc1c[nH]cn1)C(=O)N1CCC[C@H]1C(=O)N[C@@H](Cc1ccccc1)C(=O)O
proteolytic conversion (trypsin; LC-MS; 20 µM, 60 min, pH 7.4, 25 °C): 78.2 ± 2.8%

CC(C)=CCc1cc2c(cc1O)O[C@H](c1ccc(O)cc1)CC2=O
CLint (Cytochrome P450 1A1 (CYP1A1, Homo sapiens, UniProt P04798); phase I metabolism, substrate; recombinant enzyme; pH 7.4): 209 µL/min/mg

CC(C)(C)c1cc(/C=C(\C#N)C(N)=S)cc(C(C)(C)C)c1O
EC50 (Toxoplasma gondii; parasite growth; HFF, bradyzoite, alkaline-induced): 7.54 µM

Cn1c(=O)c2c(ncn2C)n(C)c1=O
CL/F (Cytochrome P450 1A2 (CYP1A2, Homo sapiens, UniProt P05177); human, plasma; oral, 200 mg, day 1, alone, geometric mean): 6.32 L/h

CC1(C)CCC2(CC1)N[C@@H](C(=O)N[C@@H]1CC[C@@H](C(N)=O)OC1)[C@H](c1ccnc(Cl)c1F)[C@]21C(=O)Nc2cc(Cl)ccc21
Papp B to A (ABCB1; Caco-2 monolayers; 10 µM, 120 min, no inhibitor): 17.3 ×10⁻⁶ cm/s

O=C1c2ccccc2C(=O)c2c(NCCc3ccc(O)cc3)ccc(NCCc3ccc(O)cc3)c21
EC50 (Toxoplasma gondii; bradyzoite growth; pH 8.2, alkaline-induced bradyzoites): 2.88 µM

CC[C@H]1[C@@H](O)[C@@H]2[C@H](CC[C@]3(C)[C@@H]([C@H](C)CCNC(=O)NS(=O)(=O)c4ccc(C(C)(C)C)cc4)CC[C@@H]23)[C@@]2(C)CC[C@@H](O)C[C@@H]12
Vd/F (ABCB1; human, plasma; dose not given, mean, together with: quinidine): 239 L

O=C(c1ccc(C(=O)N2CCC(N3CCCC3)CC2)c(Nc2ccccc2)c1)N1CCC(N2CCCC2)CC1
FRAP recovery half-time (Lethal(3)malignant brain tumor-like protein 3 (Homo sapiens, UniProt Q96JM7); FRAP; human cells; 0.1 µM): 20.1 s

CCc1nc(N)nc(N)c1-c1ccc(Cl)cc1
Ki (MATE1/MATE2-K; inhibitor): 0.0344 µM

CCc1nc(N)nc(N)c1-c1ccc(Cl)cc1
Ki (human MATE1/MATE2-K; inhibitor, measured: N1-methylnicotinamide renal clearance; human, plasma; oral, from plasma Cmax): 2.19 ± 1.17 µM

A few entries again:
C[C@@H](c1nc(-c2ccc(C#N)cc2)cs1)[C@](O)(Cn1cncn1)c1cc(F)ccc1F
IC50 (lenvatinib metabolism; inhibitor; rat liver microsomes; 30 min, pH 7.4, together with: lenvatinib substrate): 0.355 µM

Cc1oc2ccccc2c1Cc1cc(I)c(OCC(=O)O)c(I)c1
deactivation time constant reduction (KCNH2 (Homo sapiens, UniProt Q12809); ion current, whole-cell patch clamp; HEK293 expressing hERG1; 10 µM, K+ 10 mM; baseline: untreated): < 3 fold

CC[C@@H]([C@H](C)O)n1ncn(-c2ccc(N3CCN(c4ccc(OC[C@@H]5CO[C@@](Cn6cncn6)(c6ccc(F)cc6F)C5)cc4)CC3)cc2)c1=O
IC50 (lenvatinib metabolism; inhibitor; human liver microsomes; 30 min, pH 7.4, together with: lenvatinib substrate): 1.83 µM
